Assay results of several laboratories.
Protocols differ between the studies behind these lines.
Sequence of UniProt Q9HBY8 (whole entry, looked up): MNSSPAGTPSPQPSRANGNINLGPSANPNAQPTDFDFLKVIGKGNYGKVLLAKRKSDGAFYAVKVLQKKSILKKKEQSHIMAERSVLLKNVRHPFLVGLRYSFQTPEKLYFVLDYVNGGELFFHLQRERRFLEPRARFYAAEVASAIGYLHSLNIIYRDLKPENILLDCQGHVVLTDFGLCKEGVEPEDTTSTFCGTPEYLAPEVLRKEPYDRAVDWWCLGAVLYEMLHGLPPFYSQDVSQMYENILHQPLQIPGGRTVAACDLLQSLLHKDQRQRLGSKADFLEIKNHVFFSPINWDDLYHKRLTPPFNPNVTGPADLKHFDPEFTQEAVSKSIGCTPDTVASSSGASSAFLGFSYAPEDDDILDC
Sequence of UniProt P06239 (whole entry, looked up): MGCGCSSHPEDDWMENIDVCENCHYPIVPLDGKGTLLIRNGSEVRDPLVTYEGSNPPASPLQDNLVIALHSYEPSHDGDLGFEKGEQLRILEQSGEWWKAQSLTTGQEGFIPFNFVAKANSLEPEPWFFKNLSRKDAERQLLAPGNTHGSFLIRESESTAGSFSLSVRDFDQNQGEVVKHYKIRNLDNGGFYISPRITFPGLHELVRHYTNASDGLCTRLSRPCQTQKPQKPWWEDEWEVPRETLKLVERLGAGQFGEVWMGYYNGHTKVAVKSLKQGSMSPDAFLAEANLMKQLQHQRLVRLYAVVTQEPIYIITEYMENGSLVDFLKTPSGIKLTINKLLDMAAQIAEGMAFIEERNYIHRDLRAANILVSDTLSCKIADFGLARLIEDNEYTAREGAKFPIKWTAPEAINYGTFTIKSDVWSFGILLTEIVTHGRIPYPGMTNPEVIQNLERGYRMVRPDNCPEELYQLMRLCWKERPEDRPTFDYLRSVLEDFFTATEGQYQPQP

Structure (SMILES) | tested on | assay | system | setting | measurement | result
C=C(C)[C@@H]1CC[C@]2(NCCN3CCS(=O)(=O)CC3)CC[C@]3(C)[C@H](CC[C@@H]4[C@@]5(C)CC=C(C6=CC[C@@](COc7ncccc7C#N)(C(=O)O)CC6)C(C)(C)[C@@H]5CC[C@]43C)[C@@H]12 |  |  | human, plasma | oral, 100 mg, fed, tablet | AUC(0-t) | 8650 ng·h/mL
Cc1[nH]c(C)c(S(=O)(=O)Nc2ccc(S(F)(F)(F)(F)F)cc2)c1C(=O)N1CCC(F)(F)C1 |  | metabolic stability | mouse, liver microsomes |  | microsomal CLint | 35 µL/min/mg
Cc1cc(C)nc(Nc2ncc(C(=O)NCCc3c(C)[nH]c4ccccc34)cn2)c1 |  | metabolic stability | cynomolgus monkey, liver microsomes | 1 µM | half-life | 0.117 h
Cc1nn(C)cc1-c1nc2c(N3CCN(Cc4ccc(Cl)cc4)CC3)c(Cl)cnc2[nH]1 | EGFR (Homo sapiens, UniProt P00533, del746-750) | binding, competition with immobilised ligand |  | 1 µM | remaining binding | 94%
N=C(N)NCCC[C@@H](NC(=O)[C@@H](N)Cc1ccccc1)C(=O)N[C@@H](Cc1ccccc1)C(=O)N[C@@H](CCCCN)C(N)=O |  |  | human, plasma | subcutaneous, 15 mg, multiple doses, once daily, patients | half-life | 3.9 h
COc1ccc(C[C@@H](C)[C@@H](C)Cc2ccc(OC)c(OC)c2)cc1OC |  | general toxicity | male beagle dog | oral, multiple doses | NOAEL | 300 mg/kg/day
CC(C)(N)CNC(=O)O[C@@H]1CCC[C@]2(C1)OOC1(O2)C2CC3CC(C2)CC1C3 (stereo partly shown) |  |  | male CD-1 mouse, plasma | intravenous, 3 mg/kg | MRT(0-inf) | 0.428 h
CN1CCN(S(=O)(=O)c2cc([N+](=O)[O-])ccc2N(CCOS(C)(=O)=O)CCOS(C)(=O)=O)CC1 |  |  | female SCID mouse, plasma | intraperitoneal, 25 mg/kg | AUC(0-inf) | 3.34 µM·h
CC[C@H](C)CCCCC(=O)N[C@@H](CCN)C(=O)N[C@H](C(=O)N[C@@H](CCN)C(=O)N[C@H]1CCNC(=O)[C@H]([C@@H](C)O)NC(=O)[C@H](CCN)NC(=O)[C@H](CCN)NC(=O)[C@H](CC(C)C)NC(=O)[C@@H](CC(C)C)NC(=O)[C@H](CCN)NC1=O)[C@@H](C)O |  |  | male Sprague-Dawley rat, plasma | subcutaneous, 10 mg/kg | half-life | 2.04 h
Cc1nonc1Cn1nnc2c(N3CC[C@H](O)C3)nc(C(C)(C)C)nc21 |  | metabolic stability | mouse, hepatocytes |  | hepatocyte CLint | 167 µL/min/10⁶ cells
Nc1ncc(-c2nc(N3CCOCC3)nc(N3CCOCC3)n2)c(C(F)F)n1 | LCK (Homo sapiens, UniProt P06239) | binding, competition with immobilised ligand |  | 10 µM | remaining binding | 46%
C[C@H]1O[C@@H](O[C@H]2[C@@H](O)C[C@H](O[C@H]3[C@@H](O)C[C@H](O[C@H]4CC[C@@]5(C)[C@H](CC[C@@H]6[C@@H]5C[C@@H](O)[C@]5(C)[C@@H](C7=CC(=O)OC7)CC[C@]65O)C4)O[C@@H]3C)O[C@@H]2C)C[C@H](O)[C@@H]1O |  |  | Caco-2 | pH 7.4 | Papp B→A | 4.2 ×10⁻⁶ cm/s
CC(C)CC(=O)OC[C@H]1O[C@@](C#N)(c2ccc3c(N)ncnn23)[C@H](O)[C@@H]1O |  | metabolic stability | monkey, hepatocytes | 5 µM | half-life | < 0.0727 h
Cl.Cn1c(=O)n(CCCCN2CCC3(CC2)OCc2ccccc23)c2ccccc21 |  |  | male Sprague-Dawley rat, brain | intravenous, 10 mg/kg | half-life | 5.4 h
CCc1cc2c(cc1CC)CC(NC[C@@H](O)c1ccc(O)c3[nH]c(=O)ccc13)C2 | PFF0160c (Plasmodium falciparum, UniProt Q08210, E182D) | enzyme activity, inhibitor, absorbance |  |  | IC50 | 3.28 µM
CN(C)C1(CNC(=O)c2ccc3c(c2)CCN3C(=O)c2ccccc2)CCOCC1 |  |  | male C57BL/6 mouse, brain | intraperitoneal, 50 mg/kg, 2 h, unbound | concentration | 42.3 nM
Nc1nc(-c2ccccc2)nc2[nH]nc(Nc3ccc(C(F)(F)F)cc3)c12 |  |  | mouse, plasma | oral, 100 mg/kg, 1 h | concentration | 0.965 µg/mL

Structure (SMILES) | tested on | assay | system | setting | measurement | result
O=c1[nH]c(CSc2ccc3c(c2)CCC3)nc2scc(-c3ccco3)c12 | PFF0160c (Plasmodium falciparum, UniProt Q08210) | enzyme activity, inhibitor, absorbance |  |  | IC50 | > 10 µM
CC[C@H](C)[C@H](N)C(=O)N[C@@H](CC(C)C)C(=O)NCC(=O)N[C@H](CCCNC(=N)N)C(=O)N[C@H](C(=O)N[C@@H](Cc1c[nH]c2ccccc12)C(=O)N[C@@H](CCCCN)C(=O)NCC(=O)N[C@H](C(=O)N[C@@H](CCCCN)C(=O)N[C@@H](CC(=O)O)C(=O)N[C@H](C(=O)N[C@@H](CC(C)C)C(N)=O)[C@@H](C)CC)[C@@H](C)CC)[C@@H](C)CC |  | chemical stability, HPLC | human, serum | 1 mg/mL, 2 h | compound remaining | ~60%
CC(=O)c1c([O-])cc(C)oc1=O.[Na+] |  |  | rat, serum | oral, 200 mg/kg | Cmax | 245 µg/mL
CC1(CC(F)(F)F)NC(=O)N(c2ccc(F)c(C(F)(F)F)c2)C1=O (stereo not shown) |  | HPLC |  | pH 7.4 | chromatographic logD | 3.4
[18FH] |  |  | mouse, lung | intravenous, 1 h | tracer uptake | 0.19 %ID/g
O=C(Nc1cccnn1)N1CCN([C@@H]2CCOc3cc(C(F)(F)F)ccc32)CC1 |  |  | male Sprague-Dawley rat, plasma | oral, 3 mg/kg | bioavailability | 91%
OC[C@@H](O)[C@@H](O)[C@H](O)[C@H](O)CO |  |  | Caco-2 |  | Papp B→A | 0.203 ×10⁻⁶ cm/s
C/C=C1/CN2[C@@H]3C[C@@]45c6ccccc6N[C@]4(O3)[C@@H]2C[C@@H]1[C@@]5(COC(C)=O)C(=O)OC |  |  | Caco-2 | pH 7.4 | Papp B→A | 36 ×10⁻⁶ cm/s
CC1(C)NC(=O)N(c2cc(Cl)c(F)c(C(F)(F)F)c2)C1=O |  | HPLC |  | pH 7.4 | chromatographic logD | 3.3
N=C(N)NCCC[C@H](NC(=O)[C@H](Cc1ccccc1)NC(=O)[C@H](CCC(N)=O)NC(=O)OCc1ccccc1)C(=O)c1nccs1 |  |  | female C57BL/6 mouse, plasma | intranasal, 5 mg/kg | AUC(0-t) | 126 ng·h/mL
CC(=O)c1c(C)c2cnc(Nc3ccc(C4CCN(CCS(C)(=O)=O)CC4)cn3)nc2n(C2CCCC2)c1=O |  | general toxicity | Sprague-Dawley rat | oral, multiple doses | MTD | 60 mg/kg/day
CC(C)C[C@H](NC(=O)[C@H](Cc1ccccc1)NC(=O)[C@H](Cc1ccccc1)NC(=O)Cc1ccc(-c2ccccc2)cc1)C(=O)N[C@@H](CCCCN)C(=O)N[C@@H](CCCNC(=N)N)C(=O)N[C@H](C(=O)N[C@@H](Cc1c[nH]c2ccccc12)C(=O)N[C@@H](CCCCN)C(=O)N[C@@H](CCCNC(=N)N)C(=O)O)C(C)C |  | metabolic stability, mass spectrometry | mouse, liver microsomes | 45 min | compound remaining | 14.2%
CC[C@H](C)[C@@H]1NC(=O)[C@H](CCCNC(=N)N)NC(=O)C[C@@H](c2cccc3ccccc23)NC(=O)[C@@H]2CSSC[C@H](NC(=O)C[C@@H](c3cccc4ccccc34)NC(=O)[C@H](CCCNC(=N)N)NC(=O)[C@@H]3CCCN3C(=O)[C@@H]3CCCN3C1=O)C(=O)N[C@@H](Cc1ccccc1)C(=O)N1CCC[C@H]1C(=O)N[C@@H](CC(=O)O)C(=O)N[C@@H](CC(=O)O)C(=O)N[C@@H](Cc1ccccc1)C(=O)N2 |  | metabolic stability | human, liver microsomes | 200 µM, 6 h | compound remaining | ~85%
C[C@H]1O[C@@H](O[C@H]2[C@@H](O)C[C@H](O[C@H]3[C@@H](O)C[C@H](O[C@H]4CC[C@@]5(C)[C@H](CC[C@@H]6[C@@H]5C[C@@H](O)[C@]5(C)[C@@H](C7=CC(=O)OC7)CC[C@]65O)C4)O[C@@H]3C)O[C@@H]2C)C[C@H](O)[C@@H]1O |  |  | Caco-2 | 10 µM, 2 h, pH 7.4 | Papp A→B | 3 ×10⁻⁶ cm/s
CCC[C@@](N)(CO)CCc1ccc(OCCCCCC(C)C)cc1 |  |  | rat, plasma | oral, 100 mg/kg | bioavailability | 28%
C/C=C1/CN2CC[C@]34C(=C(C(=O)OC)[C@H]1C[C@H]23)Nc1ccccc14 |  |  | Caco-2 | 10 µM, 2 h, pH 7.4 | Papp B→A | 39.1 ×10⁻⁶ cm/s
[2H]c1c([2H])c([C@]2([2H])CCCN2C(=O)C(C)(C)Oc2ccc3cn[nH]c3c2)c([2H])c([2H])c1C([2H])([2H])[2H] | SGK2 (Homo sapiens, UniProt Q9HBY8) | binding, competition with immobilised ligand |  | 1 µM | remaining binding | 84%

Some of these lines once more:
Structure (SMILES) | tested on | assay | system | setting | measurement | result
CN(C)C1(CNC(=O)c2ccc3c(c2)CCN3C(=O)c2ccccc2)CCOCC1 |  |  | male C57BL/6 mouse, brain | intraperitoneal, 50 mg/kg, 2 h, unbound | concentration | 42.3 nM
[2H]c1c([2H])c([C@]2([2H])CCCN2C(=O)C(C)(C)Oc2ccc3cn[nH]c3c2)c([2H])c([2H])c1C([2H])([2H])[2H] | SGK2 (Homo sapiens, UniProt Q9HBY8) | binding, competition with immobilised ligand |  | 1 µM | remaining binding | 84%
Cc1nn(C)cc1-c1nc2c(N3CCN(Cc4ccc(Cl)cc4)CC3)c(Cl)cnc2[nH]1 | EGFR (Homo sapiens, UniProt P00533, del746-750) | binding, competition with immobilised ligand |  | 1 µM | remaining binding | 94%
CC1(C)NC(=O)N(c2cc(Cl)c(F)c(C(F)(F)F)c2)C1=O |  | HPLC |  | pH 7.4 | chromatographic logD | 3.3
N=C(N)NCCC[C@@H](NC(=O)[C@@H](N)Cc1ccccc1)C(=O)N[C@@H](Cc1ccccc1)C(=O)N[C@@H](CCCCN)C(N)=O |  |  | human, plasma | subcutaneous, 15 mg, multiple doses, once daily, patients | half-life | 3.9 h
CCc1cc2c(cc1CC)CC(NC[C@@H](O)c1ccc(O)c3[nH]c(=O)ccc13)C2 | PFF0160c (Plasmodium falciparum, UniProt Q08210, E182D) | enzyme activity, inhibitor, absorbance |  |  | IC50 | 3.28 µM
